Measurements from different studies.
Each line is one published result; not all experiments were run side by side. ± marks the error that the study gave.
GPR84: G-protein coupled receptor 84 (GPR84, Homo sapiens, UniProt Q9NQS5)
Chain of UniProt Q9NQS5 (whole entry, looked up): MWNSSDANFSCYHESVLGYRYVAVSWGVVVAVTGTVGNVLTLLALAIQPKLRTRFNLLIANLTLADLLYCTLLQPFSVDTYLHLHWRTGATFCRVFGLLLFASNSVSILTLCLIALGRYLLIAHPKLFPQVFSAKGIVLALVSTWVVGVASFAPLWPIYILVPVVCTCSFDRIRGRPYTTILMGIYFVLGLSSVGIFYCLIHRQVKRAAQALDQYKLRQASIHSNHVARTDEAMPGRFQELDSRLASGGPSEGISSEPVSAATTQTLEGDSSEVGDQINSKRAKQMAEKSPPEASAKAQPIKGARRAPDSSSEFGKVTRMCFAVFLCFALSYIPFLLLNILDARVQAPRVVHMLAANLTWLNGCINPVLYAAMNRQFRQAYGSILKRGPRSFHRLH
HDAC4: Histone deacetylase 4 (HDAC4, Homo sapiens, UniProt P56524)
Chain of UniProt P56524 (whole entry, looked up): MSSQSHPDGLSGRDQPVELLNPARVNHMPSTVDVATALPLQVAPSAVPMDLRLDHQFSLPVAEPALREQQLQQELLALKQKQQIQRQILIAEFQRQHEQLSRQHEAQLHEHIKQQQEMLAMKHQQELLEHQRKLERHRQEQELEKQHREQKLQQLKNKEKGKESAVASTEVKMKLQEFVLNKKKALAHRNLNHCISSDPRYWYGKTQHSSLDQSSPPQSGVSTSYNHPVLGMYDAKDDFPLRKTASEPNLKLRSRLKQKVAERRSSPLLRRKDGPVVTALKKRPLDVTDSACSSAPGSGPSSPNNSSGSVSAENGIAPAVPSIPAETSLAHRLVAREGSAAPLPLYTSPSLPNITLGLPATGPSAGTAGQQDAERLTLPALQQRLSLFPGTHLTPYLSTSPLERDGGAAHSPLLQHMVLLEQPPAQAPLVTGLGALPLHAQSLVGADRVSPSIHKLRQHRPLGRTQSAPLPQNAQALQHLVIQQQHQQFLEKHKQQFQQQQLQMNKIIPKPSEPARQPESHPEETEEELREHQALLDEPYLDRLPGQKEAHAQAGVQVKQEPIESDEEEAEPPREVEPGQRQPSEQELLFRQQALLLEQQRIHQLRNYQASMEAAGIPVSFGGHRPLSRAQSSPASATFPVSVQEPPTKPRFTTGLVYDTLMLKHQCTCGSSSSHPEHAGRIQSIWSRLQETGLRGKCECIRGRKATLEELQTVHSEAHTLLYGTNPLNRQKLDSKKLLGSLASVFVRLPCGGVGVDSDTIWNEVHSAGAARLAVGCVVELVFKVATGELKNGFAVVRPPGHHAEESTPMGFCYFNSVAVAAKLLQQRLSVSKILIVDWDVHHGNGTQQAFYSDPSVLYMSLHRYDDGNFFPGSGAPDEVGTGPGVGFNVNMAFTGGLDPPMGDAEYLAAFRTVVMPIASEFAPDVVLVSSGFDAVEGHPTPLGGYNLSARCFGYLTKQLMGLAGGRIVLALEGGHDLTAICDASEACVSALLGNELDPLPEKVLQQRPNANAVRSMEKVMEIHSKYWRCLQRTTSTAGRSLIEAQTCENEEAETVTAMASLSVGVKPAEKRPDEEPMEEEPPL
BRAP ZnF-UBD domain: BRCA1-associated protein, ZnF-UBD domain (BRAP, Homo sapiens, UniProt Q7Z569)
Chain of UniProt Q7Z569 (whole entry, looked up): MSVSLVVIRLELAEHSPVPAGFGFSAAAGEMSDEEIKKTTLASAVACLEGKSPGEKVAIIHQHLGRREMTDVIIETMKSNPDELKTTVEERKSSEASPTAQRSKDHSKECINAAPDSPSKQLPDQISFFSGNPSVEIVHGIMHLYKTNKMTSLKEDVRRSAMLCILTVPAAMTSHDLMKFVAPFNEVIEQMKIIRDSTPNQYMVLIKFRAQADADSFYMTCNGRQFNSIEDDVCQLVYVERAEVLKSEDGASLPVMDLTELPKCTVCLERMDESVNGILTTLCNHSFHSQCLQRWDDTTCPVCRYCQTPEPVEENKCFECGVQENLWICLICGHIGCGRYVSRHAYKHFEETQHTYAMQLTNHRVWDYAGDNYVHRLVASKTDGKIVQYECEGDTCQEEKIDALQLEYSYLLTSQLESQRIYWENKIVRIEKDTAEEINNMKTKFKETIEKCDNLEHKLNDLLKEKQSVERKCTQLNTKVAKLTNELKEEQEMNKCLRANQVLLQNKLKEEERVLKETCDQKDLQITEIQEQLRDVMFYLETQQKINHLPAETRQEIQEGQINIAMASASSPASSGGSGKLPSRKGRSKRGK
ESR2: Estrogen receptor beta (ESR2, Homo sapiens, UniProt Q92731)
Chain of UniProt Q92731 (whole entry, looked up): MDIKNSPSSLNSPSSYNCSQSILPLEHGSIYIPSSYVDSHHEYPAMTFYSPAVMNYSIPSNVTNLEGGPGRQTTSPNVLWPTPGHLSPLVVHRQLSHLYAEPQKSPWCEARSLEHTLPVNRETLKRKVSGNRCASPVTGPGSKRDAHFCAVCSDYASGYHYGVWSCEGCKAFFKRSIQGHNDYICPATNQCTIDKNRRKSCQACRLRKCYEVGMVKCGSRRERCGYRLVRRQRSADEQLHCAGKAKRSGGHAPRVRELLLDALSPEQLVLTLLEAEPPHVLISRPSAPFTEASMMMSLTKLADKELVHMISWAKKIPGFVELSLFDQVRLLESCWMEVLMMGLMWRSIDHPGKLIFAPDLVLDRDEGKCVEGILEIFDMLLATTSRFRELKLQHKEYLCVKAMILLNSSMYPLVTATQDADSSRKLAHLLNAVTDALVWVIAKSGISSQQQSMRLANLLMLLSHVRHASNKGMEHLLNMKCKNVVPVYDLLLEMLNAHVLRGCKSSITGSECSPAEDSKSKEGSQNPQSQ
SULT2A1: Sulfotransferase 2A1 (SULT2A1, Homo sapiens, UniProt Q06520)
Chain of UniProt Q06520 (whole entry, looked up): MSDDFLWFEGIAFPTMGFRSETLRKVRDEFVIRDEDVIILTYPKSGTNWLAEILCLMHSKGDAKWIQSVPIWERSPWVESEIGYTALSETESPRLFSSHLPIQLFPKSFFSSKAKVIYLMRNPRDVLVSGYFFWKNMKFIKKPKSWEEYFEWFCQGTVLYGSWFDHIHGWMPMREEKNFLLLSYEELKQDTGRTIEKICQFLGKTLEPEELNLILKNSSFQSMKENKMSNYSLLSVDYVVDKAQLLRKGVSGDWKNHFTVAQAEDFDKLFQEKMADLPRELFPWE
PIKFYVE: 1-phosphatidylinositol 3-phosphate 5-kinase (PIKFYVE, Homo sapiens, UniProt Q9Y2I7)
Chain of UniProt Q9Y2I7 (whole entry, looked up): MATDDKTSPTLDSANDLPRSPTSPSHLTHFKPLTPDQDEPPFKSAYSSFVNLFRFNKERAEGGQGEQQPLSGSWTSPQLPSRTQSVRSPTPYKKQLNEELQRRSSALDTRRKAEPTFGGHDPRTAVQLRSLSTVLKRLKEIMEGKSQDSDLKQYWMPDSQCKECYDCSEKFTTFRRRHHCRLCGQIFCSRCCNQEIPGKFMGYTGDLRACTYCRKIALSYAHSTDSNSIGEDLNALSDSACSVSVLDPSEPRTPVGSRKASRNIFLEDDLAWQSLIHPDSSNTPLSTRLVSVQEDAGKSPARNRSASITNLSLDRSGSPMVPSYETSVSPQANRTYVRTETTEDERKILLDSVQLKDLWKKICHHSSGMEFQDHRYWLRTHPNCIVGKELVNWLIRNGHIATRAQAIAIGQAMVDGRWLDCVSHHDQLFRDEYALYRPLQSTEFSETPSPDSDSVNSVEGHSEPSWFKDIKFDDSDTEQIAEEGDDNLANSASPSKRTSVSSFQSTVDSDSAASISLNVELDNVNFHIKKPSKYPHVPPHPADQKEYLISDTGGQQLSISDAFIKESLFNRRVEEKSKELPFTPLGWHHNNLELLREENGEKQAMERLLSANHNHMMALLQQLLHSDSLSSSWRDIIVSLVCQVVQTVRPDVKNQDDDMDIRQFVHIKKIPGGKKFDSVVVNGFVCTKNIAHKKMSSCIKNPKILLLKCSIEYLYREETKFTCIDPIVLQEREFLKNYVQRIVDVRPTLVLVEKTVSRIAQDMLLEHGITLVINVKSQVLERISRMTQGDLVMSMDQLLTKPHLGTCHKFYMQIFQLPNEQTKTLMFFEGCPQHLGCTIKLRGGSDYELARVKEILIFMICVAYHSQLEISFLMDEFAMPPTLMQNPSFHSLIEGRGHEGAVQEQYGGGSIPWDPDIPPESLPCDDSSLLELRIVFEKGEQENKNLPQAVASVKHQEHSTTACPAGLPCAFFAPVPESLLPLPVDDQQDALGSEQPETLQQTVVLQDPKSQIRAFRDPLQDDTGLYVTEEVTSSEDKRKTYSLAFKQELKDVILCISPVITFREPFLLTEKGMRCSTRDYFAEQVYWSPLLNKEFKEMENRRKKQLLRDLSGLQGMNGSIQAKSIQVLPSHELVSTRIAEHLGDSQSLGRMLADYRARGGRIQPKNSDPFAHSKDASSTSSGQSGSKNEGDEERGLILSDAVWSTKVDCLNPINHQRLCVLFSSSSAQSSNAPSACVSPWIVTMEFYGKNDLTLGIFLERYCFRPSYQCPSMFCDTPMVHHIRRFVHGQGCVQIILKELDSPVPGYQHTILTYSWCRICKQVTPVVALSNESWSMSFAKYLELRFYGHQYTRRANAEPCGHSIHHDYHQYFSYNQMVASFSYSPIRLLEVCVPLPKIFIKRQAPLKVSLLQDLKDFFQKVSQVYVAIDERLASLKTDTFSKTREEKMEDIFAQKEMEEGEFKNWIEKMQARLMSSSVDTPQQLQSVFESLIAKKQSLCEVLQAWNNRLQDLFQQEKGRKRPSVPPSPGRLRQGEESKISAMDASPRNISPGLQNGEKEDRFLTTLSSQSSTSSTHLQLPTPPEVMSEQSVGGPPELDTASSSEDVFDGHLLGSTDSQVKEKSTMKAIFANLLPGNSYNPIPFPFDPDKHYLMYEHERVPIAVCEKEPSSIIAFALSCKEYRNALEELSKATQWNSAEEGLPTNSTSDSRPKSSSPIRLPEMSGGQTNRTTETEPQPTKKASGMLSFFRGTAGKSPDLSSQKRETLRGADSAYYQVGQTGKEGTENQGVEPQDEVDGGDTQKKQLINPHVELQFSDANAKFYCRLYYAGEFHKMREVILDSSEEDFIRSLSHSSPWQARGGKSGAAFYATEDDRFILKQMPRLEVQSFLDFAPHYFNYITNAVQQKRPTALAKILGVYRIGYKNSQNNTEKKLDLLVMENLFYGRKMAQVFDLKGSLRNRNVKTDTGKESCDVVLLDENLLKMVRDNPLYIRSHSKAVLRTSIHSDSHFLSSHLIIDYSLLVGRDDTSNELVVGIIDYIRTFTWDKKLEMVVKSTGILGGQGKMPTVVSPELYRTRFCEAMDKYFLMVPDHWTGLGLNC

`Cc1cc2nc3c(=O)[nH]c(=O)nc-3n(C[C@H](O)[C@H](O)[C@H](O)COP(=O)(O)OP(=O)(O)OC[C@H]3O[C@@H](n4cnc5c(N)ncnc54)[C@H](O)[C@@H]3O)c2cc1C` has a Kd of 0.116 µM (Latent-transforming growth factor beta-binding protein 4 (LTBP4, Homo sapiens, UniProt Q8N2S1); binding, MS pulldown competition; SW-620 cell lysate).
With `O=c1cc(NCCCc2ccccc2)[nH]c(=O)[nH]1` the EC50 was 1.73 ± 0.6 µM (GPR84; cAMP level, agonist; human cells).
For `Nc1nc2c(ncn2[C@@H]2O[C@H](COP(=O)(O)OP(=O)(O)OP(=O)(O)O)[C@@H](O)[C@H]2O)c(=O)[nH]1`, the Kd was 0.014 µM (GTP-binding protein gtr1, with Gtr2 (gtr1, Schizosaccharomyces pombe, UniProt O74824); UV crosslinking titration; 4 °C).
With `Cc1cc(Nc2ncc3c(n2)N(C)C(=O)N(c2cc(NC(=O)c4cccc(C(F)(F)F)c4)ccc2C)C3)n(C)n1` the Kd was > 10 µM (TGFBR2 (Homo sapiens, UniProt P37173); competition binding; 11-point threefold dilution).
`C/C=C1\NC(=O)[C@H]2CSSCC/C=C/[C@H](CC(=O)N[C@H](C(C)C)C(=O)N2)OC(=O)[C@H](C(C)C)NC1=O` has a Kd of 0.101 µM (HDAC4; inhibitor, competition pulldown; SW620 and MV4-11 lysate; 1 h).
For `O=C(O)CCC(=O)c1ccc2c(c1)CCC(=O)N2`, the Kd was 126 µM (BRAP ZnF-UBD domain).
For `CCCC(CCC)C(=O)O`, the Kd was > 3020 µM (HDAC4; inhibitor, competition pulldown; SW620 and MV4-11 lysate; 1 h).
For `N[C@H]1C(O)O[C@H](CO)[C@@H](O)[C@@H]1O` (some centres unmarked), the Kd was 3090 µM (ABCB1 (Homo sapiens, UniProt P08183); surface plasmon resonance; SMA-extracted MCF-7/ADR membrane liposomes; L1 chip).
`C=CC1=C(C)C2=Cc3c(C=C)c(C)c4[n]3[Fe]([Cl])[n]3c(c(C)c(CCC(=O)O)c3=CC3=NC(=C4)C(C)=C3CCC(=O)O)=CC1=N2` has a Kd of 0.61 µM (5-aminolevulinate synthase, erythroid-specific, mitochondrial (Human, UniProt P22557, C555A/C558A/C70A)).
With `CCCCOc1ccc(CC(=O)NO)cc1` the Kd was > 30.2 µM (HDAC4; inhibitor, competition pulldown; SW620 and MV4-11 lysate; 1 h).
`Nc1ncnc2c1ncn2[C@@H]1O[C@H](COP(=O)(O)OP(=O)(O)OP(=O)(O)O)[C@@H](O)[C@H]1O` has a Kd of 18 ± 4 µM (CKMT1A (Homo sapiens, UniProt P12532, E264A); microscale thermophoresis; pH 8.5, E226A mutant, no substrate).
With `Nc1ncnc2c1ncn2[C@@H]1O[C@@H]2COP(=O)(O)O[C@H]3[C@@H](O)[C@H](n4cnc5c(N)ncnc54)O[C@@H]3COP(=O)(O)O[C@H]2[C@H]1O` the Kd was 20.1 ± 3.4 µM (uncharacterized protein (Thermoanaerobacter brockii, UniProt E8USF0)).
`COc1ccc(-c2cc(=O)c3c(O)cc(O)cc3o2)cc1` gave an EC50 of 0.955 µM (ESR2; array formation, agonist; GFP-ERβ PRL-HeLa; 1 h).
With `Nc1ncnc2c1ncn2[C@@H]1O[C@H](COP(=O)(O)OS(=O)(=O)O)[C@@H](OP(=O)(O)O)[C@H]1O` the Kd was 0.26 ± 0.04 µM (SULT2A1; intrinsic fluorescence titration; pH 7.4, without DHEA).
The Kd of `O=C(O)CCc1cn2cccnc2n1` is reported as 416 µM (BRAP ZnF-UBD domain).
`COc1cc(Nc2ncc3c(n2)-c2ccc(Cl)cc2C(c2c(F)cccc2OC)=NC3)ccc1C(=O)NCCOCCOCCNC(=O)COc1cccc2c1C(=O)N(C1CCC(=O)NC1=O)C2=O` (centres unmarked) has a Kd of 1.73 µM (Aurora kinase B, with INCENP (AURKB, Homo sapiens, UniProt Q96GD4); binding, kinobead competition; MV4-11 cell lysate).
The EC50 of `COc1cc(-c2coc3cc(O)c(OC)c(O)c3c2=O)cc(O)c1OC` is reported as 2.13 µM (ESR2; array formation, agonist; GFP-ERβ PRL-HeLa; 1 h).
With `CCCN1CCN(c2cccc(-c3cnccc3N3CCCC4(CCNC4=O)C3)c2)CC1` (centres unmarked) the Kd was 0.012 µM (PIKFYVE; SILAC displacement; LS174T-L5 cell lysate).
For `O=C(O)CNC(=O)c1ccc(C(=O)N2CCC(c3ccc(Cl)cc3)CC2)cn1`, the Kd was 537 µM (BRAP ZnF-UBD domain).
`Nc1nc2c(ncn2[C@@H]2O[C@H](COP(=O)(O)O)[C@@H](O)[C@H]2O)c(=O)[nH]1` gave a Kd of 95 ± 2 µM (GUK1 (Homo sapiens, UniProt Q16774, D103A); binding, ITC; 25 °C, added: GMP).
With `Nc1ncnc2c1ncn2[C@@H]1O[C@H](COP(=O)(O)OP(=O)(O)O)[C@@H](O)[C@H]1O` the Kd was 114 ± 85 µM (CKMT1A (Homo sapiens, UniProt P12532); microscale thermophoresis; pH 8.5, wild type, no substrate).
`Nc1nc(CC(=O)O)cs1` has a Kd of > 1000 µM (BRAP ZnF-UBD domain).
`COc1cc(O)c2c(c1)oc(=O)c1c3cc(O)c(O)cc3oc21` has a Kd of 4.11 µM (MAL12 (Saccharomyces cerevisiae S288c, UniProt P53341); fluorescence quenching; 304 K).
With `O=C(O)Cc1cccnc1` the Kd was 73.9 µM (BRAP ZnF-UBD domain).
With `C#Cc1c(F)ccc2cc(O)cc(-c3ncc4c(N5CC6CCC(C5)N6)nc(OC[C@@]56CCCN5C[C@H](F)C6)nc4c3F)c12` the Kd was 10.9 µM (GTPase NRas, GDP-bound (NRAS, Homo sapiens, UniProt P01111); SPR).
With `[Na+]` the Kd was 67400 µM (Sodium- and chloride-dependent neutral and basic amino acid transporter B(0+), apo form (Slc6a14, Mus musculus, UniProt Q9JMA9); pre-steady-state charge movement, Hill fit; Xenopus oocytes).
The Kd of `CSc1nc(C)c(CCC(=O)O)c(=O)[nH]1` is reported as > 1000 µM (BRAP ZnF-UBD domain).
The Kd of `O=C1OC2(c3ccccc31)c1cc(Br)c(O)c(Br)c1Oc1c2cc(Br)c(O)c1Br` is reported as 98 ± 5 µM (bznB (Pseudomonas fluorescens, UniProt P51853); UV-vis absorbance titration).
The Kd of `O=C(O)CCc1cnn(-c2ccccc2)c1` is reported as > 1000 µM (BRAP ZnF-UBD domain).
`C[C@H](N)C(=O)N[C@@H](CCCCNC(=O)CCCCC(=O)NCCCC[C@H](NC(=O)[C@H](C)N)C(=O)N1CCC[C@H]1C(=O)N[C@@H](Cc1ccccc1)C(=O)N[C@H](CCCCNC(=O)c1ccc2c(c1)C(=O)OC21c2ccc(O)cc2Oc2cc(O)ccc21)C(N)=O)C(=O)N1CCC[C@H]1C(=O)N[C@@H](Cc1ccccc1)C(N)=O` gave a Kd of 0.0019 ± 0.001 µM (Baculoviral IAP repeat-containing protein 3, BIR3 domain (BIRC3, Homo sapiens, UniProt Q13489); binding, fluorescence polarisation; added: tracer 1 nM).
`C[C@]12CC[C@H](O)CC1=CC[C@@H]1[C@@H]2CC[C@]2(C)C(=O)CC[C@@H]12` gave a Kd of 0.28 ± 0.02 µM (SULT2A1; intrinsic protein fluorescence titration; pH 7.4, without PAP).
`O=C(O)CC(=O)C(=O)O` gave a Kd of 0.0096 ± 0.0039 µM (Uncharacterized protein (Pelagibacter ubique, UniProt Q4FKX4); isothermal titration calorimetry; Candidatus Pelagibacter ubique; one-set-of-sites model).
The Kd of `O=C(O)Cc1c[nH]c2ccccc12` is reported as 0.094 µM (ERABP1/TMK1, TMK1 extracellular domain (Arabidopsis thaliana, UniProt P33487+P43298); binding, microscale thermophoresis).
For `CC(C)(COP(=O)(O)OP(=O)(O)OC[C@H]1O[C@@H](n2cnc3c(N)ncnc32)[C@H](O)[C@@H]1OP(=O)(O)O)[C@@H](O)C(=O)NCCC(=O)NCCS`, the Kd was 6.45 µM (Ethylmalonyl-CoA decarboxylase (ECHDC1, Homo sapiens, UniProt Q9NTX5); competitor, competition MS pulldown; SW-620 cell lysate; added: photo-immobilized beads).
`CCCN1CCN(c2ccc(-c3cncc(Cl)c3N3CCC4(CCNC4=O)CC3)cc2)CC1` gave a Kd of 0.465 µM (PIKFYVE; SILAC displacement; LS174T-L5 cell lysate).
The Kd of `CC[C@H](C)[C@H](NC(=O)[C@H](CC(C)C)NC(=O)[C@H](Cc1ccc(OP(=O)(O)O)cc1)NC(=O)[C@H](CCC(=O)O)NC(=O)[C@H](CC(=O)O)NC(=O)[C@H](C)NC(=O)[C@H](CC(=O)O)NC(=O)[C@@H](NC(=O)[C@@H](NC(=O)[C@H](CC(=O)O)NC(=O)[C@H](CC(=O)O)NC(=O)[C@H](CCSC)NC(=O)c1ccc2c(c1)C(=O)OC21c2ccc(N(C)C)cc2Oc2cc(N(C)C)ccc21)C(C)C)C(C)C)C(=O)N1CCC[C@H]1C(=O)N[C@@H](CCC(N)=O)C(=O)N[C@@H](CCC(N)=O)C(=O)NCC(=O)N[C@@H](Cc1ccccc1)C(=O)N[C@@H](CC(=O)O)C(=O)O` is reported as 1.05 µM (Proto-oncogene vav, SH2 domain (Homo sapiens, UniProt P15498); binding).
With `O=c1cc(NCCc2cccs2)[nH]c(=O)[nH]1` the EC50 was 0.189 ± 0.02 µM (GPR84; cAMP level, agonist; human cells).
The Kd of `O=C(O)CCC(=O)c1cccs1` is reported as > 1000 µM (BRAP ZnF-UBD domain).
